Experimental data of several laboratories.
Each line is one published result; not all experiments were run side by side. “And” joins repeats or separate records; there may be more than shown. ± marks the error that the study gave.

For `N=C(N)NCCC[C@H](NC(=O)[C@H](CCCNC(=N)N)NC(=O)[C@H](CCCCN)NC(=O)[C@H](CCC(N)=O)NC(=O)[C@H](CCCCN)NC(=O)[C@H](Cc1ccc(O)cc1)NC(=O)[C@@H](N)CCCCN)C(=O)N[C@@H](CO)C(=O)N[C@@H](Cc1ccc(O)cc1)C(=O)N[C@@H](CCCCN)C(=O)O`, “median change in VAS score” read -23 mm (human, dentin hypersensitivity patients; topical to tooth, 5 µg/tooth repeated, day 36, phase 1/2a trial, added: cold water stimulus; direction not given).
`NC(=O)c1cnc2[nH]ccc2c1N[C@@H]1[C@@H]2CC3C[C@H]1C[C@@](O)(C3)C2` — result for “change from baseline”: -1.02% (flow cytometry, measured: CD4+ memory T cells; Japanese healthy subjects, peripheral blood; oral, 30 mg twice daily, day 4).
For `O=C(O)CNC(=O)Cc1ccccc1`, the sarcomere length was 1.64 µm (ventricular cardiomyocytes, C57BL/6 mouse; dose not given, 0.164 s).
For `C[C@@H](Nc1cc(F)cc(F)c1)c1cc(C(=O)N(C)C)cc2c(=O)cc(N3CCOCC3)oc12`, “pPRAS40 H-score change” read -4.88% (immunohistochemistry, measured: phospho-PRAS40; human, tumor biopsy; oral, 120 mg twice daily continuous, 264 h after first dose; reference: baseline, direction not given).
Under “percent change from baseline”, `C[C@H]1C[C@H]2CSC(N)=N[C@@]2(c2nc(NC(=O)c3ccc(OC(F)F)cn3)cs2)CO1` is recorded as -37.4% (measured: total Aβ; healthy adults, plasma; 5 mg once daily, day 14; reference: placebo).
For `CC(C)(C)c1cc(C(C)(C)C(=O)O)c(O)cc1NC(=O)c1c[nH]c2ccccc2c1=O`, “contraction amplitude change” read 2 fold (rat colon ex vivo; 10 µM, added: β3 antagonist SR59230A; reference: vehicle).
`Cc1noc(C)c1-c1cc(C(O)(c2ccccn2)c2ccccn2)c2nc(C3CC3)[nH]c2c1` gave a maximum inhibition of 22.5% (measured: CCR2 expression; human, peripheral blood; 0.6 mg, day 1, 1599 study).
`C[C@@H]1CCC[C@H](n2cnc(-c3cc(Cl)ccc3-n3cc(Cl)nn3)cc2=O)c2cc(ccn2)-c2c(cnn2C(F)F)NC1=O`: “concentration for aPTT prolongation” 7.5 µM (dog plasma; IC2.5× aPTT, STA-PTT reagent).
`c1ccc(-c2n[nH]cc2-c2ccnc3ccccc23)nc1`: “log2 fold change” 1.19 (kinase binding, competitor, MIB/MS competition, measured: MCK1; Candida albicans cell lysate; 100 nM; reference: DMSO).
`Cc1coc([C@H]2C[C@H]3[C@@H](CF)SC(N)=N[C@@]3(c3ccc(F)cc3F)CO2)n1` has an Aβ42 level of 0.7 ng/g (measured: Aβx-42; Mus musculus wild-type, brain; subcutaneous, 80 mg/kg, 9 h).
Under “median difference in change”, `Cc1cn(-c2cc(NC(=O)c3ccc(C)c(Nc4nccc(-c5cccnc5)n4)c3)cc(C(F)(F)F)c2)cn1` is recorded as 18 (measured: homovanillic acid; human, cerebrospinal fluid; dose not given, between 12 and 6 months, unit not given; reference: placebo).
Under “maximum non-toxic concentration”, `COc1nc(NCc2cn(-c3ccc(NC(=O)c4ccc(C(F)(F)F)cc4)cc3)nn2)nc(OC)n1` is recorded as 1.53 ± 0.2 nM (MTT; normal colonocytes, rat; 72 h).
Under “power, EEG beta, O2-Pz”, `OC(CCN1CCCCC1)(c1ccccc1)C1CC2C=CC1C2` (centres unmarked) is recorded as 6.5 µV² (resting-state EEG; healthy elderly humans; oral, 4 mg, eyes open, LS mean).
`CC1(C)CCC(CN2CCN(c3ccc(C(=O)NS(=O)(=O)c4ccc(NCC5CCOCC5)c([N+](=O)[O-])c4)c(Oc4cnc5[nH]ccc5c4)c3)CC2)=C(c2ccc(Cl)cc2)C1` gave an EC50 of 2690 nM (cell killing; normal peripheral blood CD3+ T cells, human; 24 h).
`C[C@H](Oc1ccc(Br)cc1-c1ccon1)C(=O)O` — result for “difference from placebo”: 0.613% (last response latency; human, tibialis anterior muscle; 400 mg, 15 Hz, SAD).
`COc1ccc(-c2cncc(N[C@@H](C)c3cccc(NC(=O)c4cncc(C)c4)c3)n2)cc1OC` — result for “delta delta Ct”: 0.26 (measured: rno-miR-365-3p; rat SU5416/hypoxia model, lung; dose not given, unit not given; reference: SU5416/hypoxia vehicle).
Under “patients with IPA above 80%”, `CSCCNc1nc(SCCC(F)(F)F)nc2c1ncn2[C@@H]1O[C@H](COP(=O)(O)OP(=O)(O)C(Cl)(Cl)P(=O)(O)O)[C@@H](O)[C@H]1O` is recorded as 2.6% (light transmittance aggregometry; human patients, platelet-rich plasma; dose not given, 3 h, added: ADP 5 µM; reference: patients).
`N#Cc1ccc2c(-c3ccncc3)c(-c3ccc(F)cc3)nn2c1` — result for “log2 fold change”: -0.54 (kinase binding, competitor, MIB/MS competition, measured: NPR1; Candida albicans cell lysate; 1 µM; reference: DMSO).
For `O=C(COc1ccc(Cl)cc1)NC12CC(c3nnc([C@H]4C[C@@H](OC(F)(F)F)C4)o3)(C1)C2`, “CHAC1 mRNA change” read -93.5% (healthy human, PBMC; 145 mg once daily, day 15, 24 h post-dose, median, added: sodium arsenite ex vivo; reference: baseline).
`O=C(/C=C/c1ccc(O)c(O)c1/C=C/c1ccc(O)c(O)c1)O[C@H](Cc1ccc(O)c(O)c1)C(=O)O` gave an LVP of 20.2 mmHg (isolated myocardial tissue; 1 µM).
`O=C(OC(C(F)(F)F)C(F)(F)F)N1CCN(Cc2cccc(Oc3ccccc3)c2)CC1`: “tracer distribution volume” 7.16 mL/cm3 (PET; rhesus monkey, frontal cortex; intravenous, 0.03 mg/kg, pretreatment blocking, added: [18F]T-401).
`CN(C(=O)n1cnc(-c2ccc[n+]([O-])c2)c1)C1CCCCC1`: “peak anandamide level” 75.1 pmol/g (rats, brain; 10 mg/kg, 4 h).
`C[C@H]1O[C@@H](O[C@H]2CC[C@@]3(C)[C@@H](CC[C@]4(C)[C@@H]3C=C[C@]35OC[C@@]6(CCC(C)(C)C[C@H]63)[C@@H](O)C[C@]54C)[C@]2(C)CO)[C@H](O)[C@@H](O[C@@H]2O[C@H](CO)[C@@H](O)[C@H](O)[C@H]2O)[C@H]1O` has a liver index of 5.58% and 6.15% and 5% and 5.05% and 5.18% and 5.78% (chronic-plus-binge ethanol-fed mice; oral, 5 mg/kg/day, 7 d; reference: body weight).
Under “disease control rate”, `C=CC(=O)Nc1cc(Nc2nccc(Nc3cc(Cl)c(F)cc3C(C)(C)O)n2)c(OC)cc1N1CC[C@@H](N(C)C)C1` is recorded as 86.8% (human, EGFR exon20ins NSCLC; dose 100 mg and above).
`COc1cc2cc(-c3ccc(CC(=O)Nc4cc(C(C)(C)C(F)(F)F)no4)cn3)cnc2cc1OC`: “best overall response CR” 0% (RECIST v1.1; human other RET-altered solid tumours; 75 mg, phase I).
`Cc1n[nH]c2ccc(-c3cc(OC[C@@H](N)Cc4ccccc4)cnc3-c3ccoc3)cc12`: “log2 fold change” 0.0968 (kinase binding, competitor, MIB/MS competition, measured: SAK1; Candida albicans cell lysate; 100 nM; reference: DMSO).
`COc1nc(NCc2cn(-c3ccc(NC(=O)c4ccc(Br)cc4)cc3)nn2)nc(OC)n1`: “maximum non-toxic concentration” 1.34 ± 0.16 nM (MTT; normal colonocytes, rat; 72 h).
With `C[C@@H](NC(=O)N1C(=O)[C@H](Cc2ccnc(N)c2)[C@H]1C(=O)O)C1CCCCC1` the ACT AUEC was 135 (human; iv infusion, 1.5 mg/kg/h, 24 h, unit not given; reference: baseline).
`CC[C@@H](C)[C@@H](NC(=O)[C@@H](Cc1ccc(O)cc1)NC(=O)[C@H]1CCCN1C(=O)[C@@H](CCCNC(=N)N)NC(=O)[C@H](N)Cc1c[nH]cn1)C(=O)N[C@H](C)C(=O)N[C@H](Cc1c[nH]cn1)C(=O)N[C@H](CCCNC(=N)N)C(=O)N[C@@H](C(=O)N[C@H](Cc1ccc(O)cc1)C(=O)N[C@H](CO)C(=O)N[C@H](Cc1ccccc1)C(N)=O)C(C)C`: “IFN-γ+ CD4+ T cells” 1.47% and 6.31% and 4.77% and 4.51% (ex vivo flow cytometry; MC-38 tumour-bearing mice, tumour; dose not given; reference: CD4+ T cells).
With `CC(C)[C@H](C(=O)Nc1ccc(C(=O)NO)cc1)c1ccccc1` the tumour volume was 3.3 cm3 (volumetric MRI; human, left posterior fossa tumour; dose not given, day 373).
`COc1ncc(-c2nc3c(n2C(C)C)[C@H](c2ccc(Cl)cc2)N(c2cc(Cl)cn(C)c2=O)C3=O)c(OC)n1` — result for “best overall response”: 16.7% (International Working Group criteria; human acute myeloid leukemia patients; oral, 150 mg, response CRi, high-dose, other doses).
`C=CCn1c(=O)c2cnc(Nc3ccc(N4CCN(C)CC4)cc3)nc2n1-c1ccc2c(n1)[C@@](O)(CC)CC2` — result for “tumour growth inhibition”: 75.7% (Calu-3, NOD/SCID mice, xenograft; oral, 80 mg/kg once daily, day 28; reference: vehicle).
The sarcomere length of `CC(C)NCC(O)c1ccc(O)c(O)c1` (centres unmarked) is reported as 1.72 µm (ventricular cardiomyocytes, C57BL/6 mouse; dose not given, 0.652 s).
`CC1(C)CCC2(CC1)N[C@@H](C(=O)N[C@@H]1CC[C@@H](C(N)=O)OC1)[C@H](c1ccnc(Cl)c1F)[C@]21C(=O)Nc2cc(Cl)ccc21`: “disease control rate” 33.3% (human, solid tumours; 120 mg/day, RECIST; reference: patients).
`Cc1cc(F)cc2c(CCC(=O)N[C@@H]3C(=O)NC[C@H]3O)c(-c3ccc(F)cc3)[nH]c12`: “urine albumin/creatinine ratio” 296 µg/mg and 245 µg/mg and 6150 µg/mg and 744 µg/mg and 1590 µg/mg (APOL1 G2 mice, IFNγ-induced; 30 mg/kg twice daily, day 9).
`CC(C)c1c(C(=O)Nc2ccccc2)c(-c2ccccc2)c(-c2ccc(F)cc2)n1CC[C@@H](O)C[C@@H](O)CC(=O)O` has an LDL-C of 53.3 mg/dL (cynomolgus monkey, male, serum; 40 mg/kg or 25 mg/kg, day 176, 4224 h).
With `CCCCC1(CCCC)CN(c2ccccc2)c2cc(SC)c(OCC(=O)N[C@@H](C(=O)NCC(=O)O)c3ccccc3)cc2S(=O)(=O)C1` the plasma C4 was 70.5 ng/mL (measured: 7α-hydroxy-4-cholesten-3-one; human, plasma; 15 mg once daily, day 11).
`C=C1CC[C@H](OCCCNC(=O)CCOCCOCCOCCOCCOCCOCCOCCOCCOCCOCCOCCOCCOCCOCCOCCOCCOCCOCCOCCOCCOCCOCCOCCOCCOCCOCCOCCOCCOCCOCCOCCOCCOCCOCCOCCOCCNC(=O)CCN2C(=O)CC(SC[C@H](NC(=O)[C@H](CCCNC(=N)N)NC(=O)[C@@H]3CCCN3C(=O)[C@H](CCC(N)=O)NC(=O)[C@H](CC(C)C)NC(=O)[C@H](CCCCN)NC(=O)[C@H](C)NC(=O)[C@@H]3CCCN3C(=O)[C@@H]3CCCN3C(=O)[C@H](CCCCN)NC(=O)[C@H](CCCCN)NC(=O)[C@H](CO)NC(=O)[C@H](CCC(=O)O)NC(=O)[C@H](CCCCN)NC(=O)[C@H](CCCNC(=N)N)NC(=O)[C@H](CCC(N)=O)NC(=O)[C@H](CCC(N)=O)NC(=O)[C@@H](NC(=O)[C@H](CCCNC(=N)N)NC(=O)[C@H](CCC(N)=O)NC(=O)[C@H](Cc3c[nH]cn3)NC(=O)[C@H](CCC(=O)O)NC(=O)[C@@H]3CCCN3C(=O)[C@H](CO)NC(=O)[C@H](CC(C)C)NC(=O)[C@H](Cc3ccccc3)NC(=O)[C@H](CNC(=O)CCCCCCC)NC(=O)[C@H](CO)NC(=O)CN)C(C)C)C(=O)O)C2=O)C/C1=C/C=C1\CCC[C@]2(C)[C@@H]([C@H](C)CCCC(C)(C)O)CC[C@@H]12` (some centres unmarked): mRNA level “decreased” (real-time RT-PCR, measured: Bnip3; mice, LLC tumour-bearing, gastrocnemius/plantaris muscle; daily or every other day; reference: tumour-bearing vehicle).
`CC#CC(=O)N[C@H]1CCCN(c2c(F)cc(C(N)=O)c3[nH]c(C)c(C)c23)C1` — result for “change from baseline in serum IgM”: -8.1% (healthy volunteers, multiple ascending dose, serum; 0.3 mg once daily, day 21).
`NCC(=O)Nc1cncc(-c2nn3c(=O)cc(N4CCNCC4)nc3s2)c1` has a median inhibition of 27.6% (ADP-induced platelet aggregation, light transmission aggregometry; human, stable CAD on aspirin, platelets ex vivo; subcutaneous, 0.075 mg/kg, 120 min post-dose, added: ADP 20 µM).
Under platelet aggregation, `O=C(O)c1cc(N2N=C(C(F)(F)F)/C(=C/c3ccc(-c4ccccc4)o3)C2=O)ccc1Cl` is recorded as “inhibited” (mouse, Ero1α-null platelets; 3 µM).
With `CN[C@@H]1COc2c(S(=O)(=O)NC(=O)Nc3c4c(cc5c3CCC5)CCC4)cnn2C1` the inhibition was 99.7% (measured: IL-1β; human participants, whole blood ex vivo; 300 mg twice daily, multiple doses, 145 h, added: LPS/ATP; reference: baseline).
`COc1cc(Nc2ncc3c(n2)-c2ccc(Cl)cc2C(c2c(F)cccc2OC)=NC3)ccc1C(=O)O`: “median response score” 2 (mouse, NB-EBc1 neuroblastoma xenograft; 10.4 mg/kg; direction not given).
`CCN1CCN(Cc2ccc(Nc3ncc(F)c(-c4cc(F)c5nc6n(c5c4)[C@H](C)CCC6)n3)nc2)CC1` — result for “median progression-free survival”: 1.7 months (human advanced solid tumours; 50 mg, phase Ia monotherapy RECIST 1.1).
`CCOCc1nc(O)c(-c2nnc(Cc3ccc(Cl)cn3)o2)c(O)c1-c1c(OC)cccc1OC` gave a dP/dtmax change of 13.4 ± 1.6% (instrumented anaesthetised rat; intravenous infusion, 10 µg/kg/min for 15 min, 15 min; reference: baseline).
For `Cc1cc([C@H]2C[C@H]3[C@@H](CF)SC(N)=N[C@@]3(c3ccc(F)cc3F)CO2)on1`, the Aβ42 level was 0.72 ng/g (measured: Aβx-42; Mus musculus wild-type, brain; subcutaneous, 30 mg/kg, 14 h).
`N#Cc1ccn2c(-c3ccncc3)c(-c3ccc(F)cc3)nc2c1`: “log2 fold change” -0.53 (kinase binding, competitor, MIB/MS competition, measured: HSL1; Candida albicans cell lysate; 10 µM; reference: DMSO).
